# Experimental data gathered from unrelated publications.
# “And” joins repeats or separate records; there may be more than shown. ± marks the error that the study gave.
SMILES,target,assay,test system,setting,how to read,endpoint,result
O=C(NN=Cc1ccc(C[n+]2ccccc2)cc1)c1ccc2ccc3ccc(C(=O)NN=Cc4ccc(C[n+]5ccccc5)cc4)nc3c2n1.[Br-].[Br-],hp2 hairpin duplex DNA,FRET melting,,1 µM,,ΔTm,1.1 ± 0.2 °C
COc1cc2c3c(n(CCCN4CCOCC4)c(=O)c2cc1OC)-c1nc2c(cc1C3=O)OCO2,MYC G-quadruplex DNA,FRET melting,,"2.0 µM, pH 7.0, with: K+ 10 mM",,ΔTm,17.2 ± 1.4 °C
O=c1c2ccccc2[se]n1-c1ccccc1,rat AA3,,,20 µM,,inhibition,inhibited
COc1cc(C(=O)Nc2cc(OC)c3ccccc3n2)nc(C(=O)Nc2cc(OC)c3ccccc3n2)c1,c-kit1 G-quadruplex DNA,FRET melting,,"1 µM, pH 7.4, with: 60 mM potassium",,ΔTm,1.2 ± 0.6 K
C[n+]1cccc2cc(C=NNC(=O)c3ccc4ccc5ccc(C(=O)NN=Cc6ccc7c(ccc[n+]7C)c6)nc5c4n3)ccc21.[I-].[I-],hp2 hairpin duplex DNA,FRET melting,,1 µM,,ΔTm,1.7 ± 0.6 °C
CN(C)CCCOc1cc(NC(=O)c2cc(Cl)cc(C(=O)Nc3cc(OCCCN(C)C)c4ccccc4n3)n2)nc2ccccc12,c-kit1 G-quadruplex DNA,FRET melting,,"1 µM, pH 7.4, with: 60 mM potassium",,ΔTm,31.6 ± 0.5 K
Cc1ncsc1-c1ccc(CNC(=O)[C@@H]2C[C@@H](O)CN2C(=O)[C@@H](NC(=O)C2(C#N)CC2)C(C)(C)C)cc1,F4/80+ macrophages,immunostaining,"Mus musculus, meningeal perivascular region",concentration not given,,macrophage density,11.4 cells/mm² and 8.74 cells/mm²
CCOc1ccc(N(C)S(=O)(=O)c2cc(Cl)sc2C(=O)Nc2cc(Cl)cc(C(=O)O)c2)cc1OC,nuclear hormone receptor panel,CRT,,concentration not given,,activity,inactive
NCCOc1cc(C(=O)Nc2cc(OCCN)c3ccccc3n2)nc(C(=O)Nc2cc(OCCN)c3ccccc3n2)c1,c-kit1 G-quadruplex DNA,FRET melting,,"1 µM, pH 7.4, with: 60 mM potassium",,ΔTm,35 ± 0.7 K
CO[C@@H](C(=O)N1Cc2n[nH]c(NC(=O)c3ccc(N4CCN(C)CC4)cc3)c2C1)c1ccccc1,histone H3 (human),Western blot and IHC,"patients with advanced solid tumours, skin biopsy",24 h,reference: baseline,dose decreasing phospho-histone H3,≥ 500 mg/m2
CC(C)C[C@H](N)C(=O)O,SAR11_1346,differential scanning fluorimetry,Candidatus Pelagibacter sp.,in-house screen,,thermal shift,7.85 °C and 8.35 °C
CN(C)CCCOc1cc(NC(=O)c2cccc(C(=O)Nc3cc(OCCCN(C)C)c4ccccc4n3)n2)nc2ccccc12,c-kit1 G-quadruplex DNA,FRET melting,,"1 µM, pH 7.4, with: 60 mM potassium",,ΔTm,26.8 ± 0.5 K
CC[C@@H]1[C@H](F)C(=O)N[C@@H]1COc1nccc2cc(C(N)=O)c(OC)cc12,CK1 delta and CK1 epsilon,"ATP-site binding, ActivX kinase profiling",THP-1 cell lysate,Lys2 probe peptide,,IC50,150 nM
O=C(O)[C@@H](O)[C@@H](O)[C@H](O)[C@@H](O)C(=O)O,SAR11_1346,differential scanning fluorimetry,Candidatus Pelagibacter sp.,in-house screen,,thermal shift,2.78 °C
CCNCCCn1c2c(c3cc(OC)c(OC)cc3c1=O)C(=O)c1cc3c(nc1-2)OCO3,MYC G-quadruplex DNA,FRET melting,,"2.0 µM, pH 7.0, with: K+ 10 mM",,ΔTm,31.6 ± 0.8 °C
COc1cccc(CNC(=O)C#Cc2cn(Cc3ccc(C(=O)O)cc3)c(=O)[nH]c2=O)c1,MMP-12,"inhibitor, colorimetric",,20 µM,,remaining MMP-12 activity,106 ± 29%
Cc1ccc(C(=O)Nc2ccc3ccccc3c2)o1,rat Kv2.1,"ion current, whole-cell patch-clamp",,10 µM,,inhibition,20%
COc1cc2c3c(n(CCCn4ccnc4)c(=O)c2cc1OC)-c1cc2c(cc1C3=O)OCO2,MYC G-quadruplex DNA,FRET melting,,"2.0 µM, pH 7.0, with: K+ 10 mM",,ΔTm,8.6 ± 1.3 °C
C#CCOc1cc(C(=O)Nc2cc(OCCN)c3ccccc3n2)nc(C(=O)Nc2cc(OCCN)c3ccccc3n2)c1,c-kit1 G-quadruplex DNA,FRET melting,,"1 µM, pH 7.4, with: 60 mM potassium",,ΔTm,14.6 ± 0.5 K
CCN(CC)CC1CCCCN1CC(=O)N1c2ccccc2C(=O)Nc2cccnc21 (centres unmarked),"muscarinic M2 receptor, bullfrog","IK(ACh) current, antagonist, whole-cell patch clamp",bullfrog atrial myocytes,"holding potential -35 mV, with: acetylcholine 1 µM",,IC50,380 nM
CC(=O)N[C@H](C(=O)N1C[C@H](O)C[C@H]1C(=O)NCc1ccc(-c2scnc2C)cc1)C(C)(C)SCCCCCCNC(=O)C[C@@H]1N=C(c2ccc(Cl)cc2)c2c(sc(C)c2C)-n2c(C)nnc21,DNA-PKcs (human),TMT proteomics,HeLa,"1 µM, 24 h",reference: DMSO,relative protein abundance,1.01
C#CCOc1cc(C(=O)Nc2cc(OCCCN)c3ccccc3n2)nc(C(=O)Nc2cc(OCCCN)c3ccccc3n2)c1,c-kit1 G-quadruplex DNA,FRET melting,,"1 µM, pH 7.4, with: 60 mM potassium",,ΔTm,16.5 ± 1 K
CCCCC1=NC2(CCCC2)C(=O)N1Cc1ccc(-c2ccccc2S(=O)(=O)Nc2noc(C)c2C)c(COCC)c1,P-gp,"substrate, SIVA model",Caco-2,,,Km,8.03 µM
N[C@@H]1c2ccccc2OC12CCN(c1cnc3c(N4CCCc5ncccc54)n[nH]c3n1)CC2,"ERK, human",,"patients with advanced solid tumours, monocytes, GM-CSF stimulated, blood","≥40 mg, cycle 1 day 15, with: GM-CSF",reference: baseline (cycle 1 day 1),pERK inhibition,72 to 95%
CC(Nc1nc(N2CCCC2)nc2ccccc12)c1ccccc1 (centres unmarked),importin α/β1,"cMyc nuclear import, high content imaging",HeLa Kyoto reporter,"0.0158 µM, 2 h",,cells with nuclear reporter,80.7%
O=C(O)[C@H](O)[C@@H](O)[C@H](O)[C@H](O)CO[C@H]1O[C@H](CO)[C@H](O)[C@H](O)[C@H]1O,SAR11_1346,differential scanning fluorimetry,Candidatus Pelagibacter sp.,in-house screen,,thermal shift,3.01 °C
Oc1ccccc1-c1n[nH]cc1-c1ccnc2ccccc12,MCK1 (Candida albicans),"kinase binding, MIB/MS competition",Candida albicans lysate,1 µM,reference: DMSO,log2 fold change,0.11
N[C@@H](Cc1ccccc1)C(=O)O,SAR11_1346,differential scanning fluorimetry,Candidatus Pelagibacter sp.,in-house screen,,thermal shift,2.01 °C
CCCC(CCC)c1nc2c(Nc3ccc(C#CCCCCCCCCN)cc3)nc3ccccc3c2[nH]1,benzodiazepine site,PDSP screening,,,,affinity,inactive
C#Cc1cc(-c2cc(Nc3nc(N[C@@H](C)c4ccc(F)cn4)ncc3Cl)n[nH]2)ccc1C=O,"TFG-TRKA kinase fusion, human","kinase activity, inhibitor",,0.2 µM,,inhibition,103%
CCCCCCCC(=O)OC[C@H](COP(=O)(O)O[C@@H]1[C@H](O)[C@H](O)[C@@H](OP(=O)(O)O)[C@H](OP(=O)(O)O)[C@H]1O)OC(=O)CCCCCCC,Kv7.2/Kv7.3(EEE) mutant channel,activator,,"model 5, efficacy fixed to wild type",,cooperativity factor,6.64
CN(C)c1ccc2cc(C(=O)NS(=O)(=O)c3ccccc3-c3ccccc3)oc2c1,off-target panel,,,"10 µM, 77 targets",,inhibition,≤ 50%
COc1cc2c3c(n(CCCN4CCC[C@H]4CO)c(=O)c2cc1OC)-c1nc2c(cc1C3=O)OCO2,MYC G-quadruplex DNA,FRET melting,,"2.0 µM, pH 7.0, with: K+ 10 mM",,ΔTm,28.4 ± 1.2 °C
N[C@@H](Cc1c[nH]c2ccccc12)C(=O)O,SAR11_1346,differential scanning fluorimetry,Candidatus Pelagibacter sp.,in-house screen,,thermal shift,2.33 °C
COc1cc(C(=O)Nc2cc(OCCN3CCCC3)c3ccccc3n2)nc(C(=O)Nc2cc(OCCN3CCCC3)c3ccccc3n2)c1,c-kit1 G-quadruplex DNA,FRET melting,,"1 µM, pH 7.4, with: 60 mM potassium",,ΔTm,17.7 ± 0.7 K
c1coc(-c2n[nH]cc2-c2ccnc3ccccc23)c1,CKA1 (Candida albicans),"kinase binding, MIB/MS competition",Candida albicans lysate,10 µM,reference: DMSO,log2 fold change,-0.14
O=C(Nc1cc(OCCN2CCCC2)c2ccccc2n1)c1cc(OCc2ccc(F)cc2)cc(C(=O)Nc2cc(OCCN3CCCC3)c3ccccc3n2)n1,c-kit1 G-quadruplex DNA,FRET melting,,"1 µM, pH 7.4, with: 60 mM potassium",,ΔTm,9.1 ± 0.9 K
COc1cc2c3c(n(CCCn4ccnc4)c(=O)c2cc1OC)-c1nc2c(cc1C3=O)OCO2,MYC G-quadruplex DNA,FRET melting,,"2.0 µM, pH 7.0, with: K+ 10 mM",,ΔTm,12.1 ± 1.7 °C
COc1cc(C)c2cc(C3(NS(=O)(=O)c4ccccc4-c4ccccc4)COC3)oc2c1,human estrogen receptor alpha,reporter gene,MCF7-MVLN,,,IC50,18300 nM
CCCCCCCC(=O)OCC(COC(=O)CCCCCCC)OC(=O)CCCCCCC,human FXRα-RXRα,"protein-protein interaction, antagonist, mammalian two-hybrid",COS-7 cells,"concentration not given, PGC1α co-transfected, with: GW4064",reference: GW4064 alone,relative interaction,62.3%
CO[C@H]1O[C@H](COS(=O)(=O)O)[C@@H](O[C@@H]2O[C@@H](C(=O)O)[C@@H](O[C@H]3O[C@H](COS(=O)(=O)O)[C@@H](O[C@@H]4O[C@H](C(=O)O)[C@@H](O[C@H]5O[C@H](COS(=O)(=O)O)[C@@H](O)[C@H](O)[C@H]5NS(=O)(=O)O)[C@H](O)[C@H]4O)[C@H](OS(=O)(=O)O)[C@H]3NS(=O)(=O)O)[C@H](O)[C@H]2OS(=O)(=O)O)[C@H](O)[C@H]1NS(=O)(=O)O,human CCL7,nano-ESI MS,,"10 µM, pH 6.8, CCL7 12.5 µM",,association constant,130000 ± 10000 M⁻¹

# Some of these lines once more:
SMILES,target,assay,test system,setting,how to read,endpoint,result
NCCOc1cc(C(=O)Nc2cc(OCCN)c3ccccc3n2)nc(C(=O)Nc2cc(OCCN)c3ccccc3n2)c1,c-kit1 G-quadruplex DNA,FRET melting,,"1 µM, pH 7.4, with: 60 mM potassium",,ΔTm,35 ± 0.7 K
O=c1c2ccccc2[se]n1-c1ccccc1,rat AA3,,,20 µM,,inhibition,inhibited
Oc1ccccc1-c1n[nH]cc1-c1ccnc2ccccc12,MCK1 (Candida albicans),"kinase binding, MIB/MS competition",Candida albicans lysate,1 µM,reference: DMSO,log2 fold change,0.11
CCCCCCCC(=O)OCC(COC(=O)CCCCCCC)OC(=O)CCCCCCC,human FXRα-RXRα,"protein-protein interaction, antagonist, mammalian two-hybrid",COS-7 cells,"concentration not given, PGC1α co-transfected, with: GW4064",reference: GW4064 alone,relative interaction,62.3%
